# Measured values from different studies.
# Every numbered part comes from another study and shows a few of its results, in no order.

# Block 1 — method: competition protein-binding microarray; molecule type: double-stranded DNA, one strand shown; medium: in vitro; tested at: 2 µM; added: Pho4 competitor, 0.05 µM; direction: higher = stronger binding; constant ends, left off below: … GTCTTGATTCGCTTGACGCTGCTG
# Target: Centromere-binding protein 1, full length, His-tagged (CBF1, Saccharomyces cerevisiae, UniProt P17106, residues 1-351)
# UniProt P17106, sequence (whole entry, looked up): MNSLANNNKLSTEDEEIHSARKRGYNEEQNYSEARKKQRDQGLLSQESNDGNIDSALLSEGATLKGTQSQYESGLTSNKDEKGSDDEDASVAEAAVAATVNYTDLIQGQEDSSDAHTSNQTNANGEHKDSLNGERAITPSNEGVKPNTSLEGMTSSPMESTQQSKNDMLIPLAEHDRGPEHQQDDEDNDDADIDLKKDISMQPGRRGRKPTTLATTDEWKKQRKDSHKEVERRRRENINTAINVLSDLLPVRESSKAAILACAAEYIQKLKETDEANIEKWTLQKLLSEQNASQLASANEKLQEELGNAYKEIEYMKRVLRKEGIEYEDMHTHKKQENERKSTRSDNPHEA
# Setting: whole 60-bp probe, lowest competitor level
Sequence,fluorescence intensity
CCGATCTAGCGTAGTCACCTGATAACAGGAACATAG,1260 a.u.
GCTGCGGCGGAAAAAAACGTGACGGCTTTTAGCACA,951 a.u.
AGGTCGCTAAAAATCCACGTTAACGGGACGCTGGTA,64.3 a.u.
AAATTACTAAGTTGCGTGGTGGGTGACGCCGTATGA,67.6 a.u.
GTCTTGTCTCATTGTCTAGTGGGTGTCCCCACTTCA,76.9 a.u.
ACCTAGAGAAACCAAAACGTGATGGCCTGCTGGGAT,276 a.u.
AAAGCGGTAATTTTTCACGTGTCTTCACATATCTAT,1300 a.u.
TGAACCCTTACTTACTGCGTGACTCGGTTGATTTAG,169 a.u.
AAAGCGGTAATTTGTCACAGAACTTCACATATCTAT,108 a.u.
TTATCGGTCTCGAGTCACGTGCGGAGACGCGGAGGC,6160 a.u.
CTAACGAAGGTTTGAGGGGTGGGTGACAAGCCAAGT,68.9 a.u.
CGTCCTAGTGATTGTGCTGTGGGTGCCATGAGGAAG,91.7 a.u.
GATTCCATTCGATTCCATGTGATGATTCCATTCTAT,211 a.u.
TCCAGGGAAACAAGCCAGGCGCAGGCACCTTAATAA,61.5 a.u.

# Block 2 — target: UBE2M UBC core domain (UniProt P61081); method: yeast two-hybrid; medium: yeast; setting: mostly zero background; reference: not given; direction: higher = stronger interaction
# UniProt P61081, sequence (whole entry, looked up): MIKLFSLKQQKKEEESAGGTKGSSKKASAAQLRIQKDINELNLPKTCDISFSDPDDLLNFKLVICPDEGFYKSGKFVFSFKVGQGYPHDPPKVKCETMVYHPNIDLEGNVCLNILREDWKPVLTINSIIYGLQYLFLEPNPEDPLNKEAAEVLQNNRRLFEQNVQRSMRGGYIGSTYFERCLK
# B1: TRIM31 RING domain (UniProt Q9BZY9); chain FVNKLQEEVICPICLDILQKPVTIDCGHNFCLKCITQIGETSCGFFKCPLCKTSVRKNAIRF
# B2: RNF166 RING domain (UniProt Q96A37); chain GDSGLEAQYTCPICLEVYHRPVAIGSCGHTFCGECLQPCLQVPSPLCPLCRLPFDPKKVDK
# B3: RNF183 RING domain (UniProt Q96D59); chain EQQGRELEAECPVCWNPFNNTFHTPKMLDCCHSFCVECLAHLSLVTPARRRLLCPLCRQPTVLASGQP
# B4: RLIM RING domain (UniProt Q9NVW2); chain SFGENDALKTCSVCITEYTEGNKLRKLPCSHEYHVHCIDRWLSENSTCPICRRAVLASGNRE
# B5: TRIM26 RING domain (UniProt Q12899); chain PLRSLEEEVTCSICLDYLRDPVTIDCGHVFCRSCTTDVRPISGSRPVCPLCKKPFKKENIRP
# B6: ANAPC11 RING domain (UniProt Q9NYG5); chain GICRMAFNGCCPDCKVPGDDCPLVWGQCSHCFHMHCILKWLHAQQVQQHCPMCRQEWKFKE
# B7: MEX3B RING domain (UniProt Q6ZN04); chain SGLRRKGSRDCSVCFESEVIAALVPCGHNLFCMECANRICEKSEPECPVCHTAVTQAIRIF
Sequence,lacZ reporter activity
B1 (TRIM31 RING domain),0
YCEMGSTFQLCKICAENDKDVKIEPCGHLMCTSCLTAWQESDGQGCPFCRCEIKGTEPII (CBLB RING domain (UniProt Q13191)),0
B2 (RNF166 RING domain),0
B3 (RNF183 RING domain),0
B4 (RLIM RING domain),0
B5 (TRIM26 RING domain),0
B6 (ANAPC11 RING domain),0
YPEEVDDDLICHICLQALLDPLDTPCGHTYCTLCLTNFLVEKDFCPMDRKPLVLQHCKK (LNX1 RING domain (UniProt Q8TBB1)),0
B7 (MEX3B RING domain),0
AEADPLGRFTCPVCLEVYEKPVQVPCGHVFCSACLQECLKPKKPVCGVCRSALAPGVRAV (RNF114 RING domain (UniProt Q9Y508)),0

# Block 3 — method: universal PBM; molecule type: double-stranded DNA, one strand shown; medium: in vitro; tested at: not given; direction: higher = stronger binding
# Target: Sal-like protein 4, full length isoform B (SALL4, Homo sapiens, UniProt Q9UJQ4-2, residues 1-616)
# Setting: 8-mer, flanks averaged, mean of replicates
Sequence,E-score
AAACCGTG,-0.214
TCCATGGA,0.00683
CTAACCCC,-0.145
CGGTAGCA,-0.064
GCACAGCC,-0.304
CTCGCCGC,-0.32
ACATCATA,0.268
TGACCAAA,0.137
CGGACTCC,-0.2
CGCTGTGA,-0.164
TAGCCTAA,0.0412
CGGCAGGA,-0.361
GGATAGGA,0.00917
ATATTTCG,0.417
AGGTCGCG,-0.218
GATTTTGC,-0.115
GCACGCTA,-0.16
GTTCTCTA,0.0945
ACAACTAT,0.168
AGCTGCAG,-0.126

# Block 4 — method: protein binding microarray; molecule type: double-stranded DNA, one strand shown; medium: in vitro; tested at: not given; reference: not given; direction: higher = stronger binding
# Target: Histone acetyltransferase KAT6A, winged helix 2, GST fusion (KAT6A, Homo sapiens, UniProt Q92794, residues 85-181)
# Setting: 8-mer, flanks averaged, mean of 2 arrays, mostly near background
# Construct (chain): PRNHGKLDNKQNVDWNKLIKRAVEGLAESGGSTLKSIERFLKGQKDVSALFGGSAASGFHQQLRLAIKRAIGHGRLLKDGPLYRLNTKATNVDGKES
Sequence,E-score
AACTTCCC,-0.0912
CCCGTACG,0.0458
CAGGCACC,-0.00962
AACGTTCT,-0.234
AGGTGGAG,-0.0682
CGACGGGA,0.195
AGGTCAGC,0.0738
GATTGGGC,0.168
ATTCATAA,-0.0692
AACACCAG,0.0321
CCGGTTTA,-0.00937
CCTTGGAC,-0.129
TAACTCTA,-0.222
AGGCCGAA,0.107
CATCTGAG,-0.0433
TAAGGTAA,0.0257
CCATGACA,0.0243
GCTAGCAA,0.0259
AAGTGGCG,0.0174

# Excerpt of the above (block 3):
Sequence,E-score
ACATCATA,0.268
TGACCAAA,0.137
CGGACTCC,-0.2
CGCTGTGA,-0.164
TAGCCTAA,0.0412
CGGCAGGA,-0.361
